Published values gathered from unrelated publications.
Protocols differ between the studies behind these lines. Numbers after ± are the reported error.

For `Cn1cc(Nc2nccc(-c3ccc4c(c3)CN(C3COC3)CC[C@H]4NC(=O)c3cn(C(C)(C)C)nn3)n2)cn1`, “pathway activation z-score” read 3.27 (mouse splenic B cells; item: IL-8 signalling; 30 mg/kg, IgD-activated in vivo; baseline: vehicle, direction not given).
`Cn1cc(-c2ccc(-c3cncc(Cl)c3N3CCC4(CCNC4=O)CC3)cc2)cn1`: “log2 fold change” 2.21 (COLO 205; gene expression, microarray, item: PDE4A mRNA; concentration not given, 2 h; baseline: untreated cells).
For `Cc1cc(O)c2c(c1)C(=O)c1cc(O)cc(O)c1C2=O`, the viability was 32.1 ± 6.23% (HK-2 co-cultured with HepaRG; MTT; 133.33 µM, 24 h; baseline: untreated control).
`O=c1[nH]c(=O)c2ccccc2o1` has an inhibition of 57.4% (THP-1; pyroptotic LDH release; 2 µM, 40 min, added: LPS then nigericin).
`O=C(O)CCc1ccc(O)c(O)c1` has an IL-1β level of 6.4 ± 1.1 fold change (coculture, Caco-2, THP-1; ELISA; 1000 ng/mL, 8 h, added: LPS, IFNγ, ATP; baseline: untreated control).
For `CC(=O)N(c1onc(C)c1C)S(=O)(=O)c1ccc(N)cc1`, the inhibition was -20.2% (THP-1; pyroptotic LDH release; 2 µM, 40 min, added: LPS then nigericin).
`C1CCC(C(CC2CCCCN2)C2CCCCC2)CC1` (stereo not shown): “MyBP-C level change” 14.4 SD (human iPSC cardiomyocytes; plate-normalised; concentration not given, hit retest; baseline: vehicle controls, SDs below control).
`COc1cc(N2CCN(C)CC2)ccc1Nc1nccc(-c2cn(C)c3cnccc23)n1` gave an inhibition of 46.5% (THP-1; pyroptotic LDH release; 2 µM, 40 min, added: LPS then nigericin).
`Cn1cc(NC(=O)c2cc(NC(=O)c3ccc(/C=C/c4cnc5ccccc5c4)cc3)cn2C)cc1C(=O)NCCN1CCOCC1` has an EC50 of > 9960 nM (HEK293T ATF4-FLuc reporter; ATF4 reporter gene, activator, luciferase reporter).
`CC(C)C[C@H](NC(=O)C[C@H](O)[C@H](CC(C)C)NC(=O)[C@H](Cc1c[nH]cn1)NC(=O)CNC(=O)[C@@H](NC(=O)[C@H](C)NC(=O)[C@H](Cc1c[nH]c2ccccc12)NC(=O)[C@H](CCC(N)=O)NC(=O)[C@@H](Cc1ccccc1)NC(=O)COCCOCCNC(=O)CCC(C(=O)O)N1CCN(CC(=O)O)CCN(CC(=O)O)CCN(CC(=O)O)CC1)C(C)C)C(N)=O` (stereo partly shown) [lutetium-177 labelled] has a tissue uptake of 0.054 ± 0.013 %ID/g (female BALB/c nu/nu mice, liver; intravenous, 50 pmol, 24 h).
With `CCCCN1C[C@H](O)[C@@H](O)[C@H](O)[C@H]1CO` the inhibition was 6.54% (THP-1; pyroptotic LDH release; 2 µM, 40 min, added: LPS then nigericin).
With `COc1cnc2cccc(N3CCc4c(cc(Cn5ccnc5C)cc4-c4cn(C)nc4C(F)(F)F)C3=O)c2c1` the EC50 was 29.8 nM (OCI-Ly10; cell growth, inhibitor; 120 h).
The kynurenine level of `CCCC(=O)[O-].[Na+]` is reported as 158 ± 10 % change (Caco-2/THP-1 co-culture; concentration not given, added: LPS 500 ng/mL).
`O=C(/C=C/C=C/C=C/C1CCCCC1)NC1=C[C@@](O)(/C=C/C=C/C=C/C(=O)NC2=C(O)CCC2=O)[C@@H]2O[C@@H]2C1=O` gave a GI50 of 18500 nM (MDST8; cell growth, CellTiter-Glo; 78 h).
With `C/C(O)=C(\C#N)C(=O)Nc1ccc(C(F)(F)F)cc1` the inhibition was 31.5% (THP-1; pyroptotic LDH release; 2 µM, 40 min, added: LPS then nigericin).
`CCn1cc(-c2cc(Cn3ccoc3=N)cc3c2CCN([C@@H](C)c2cc(OC)ccn2)C3=O)c(C(F)(F)F)n1` has an EC50 of 650 nM (OCUM1; cell growth, inhibitor; 120 h).
The EC50 of `Cc1ccc2c(Nc3cccc(Cl)c3)nccc2c1NC(=O)c1csc2c(N)ncnc12` is reported as 2740 nM (HEK293T ATF4-FLuc reporter; ATF4 reporter gene, activator, luciferase reporter).
`CC(=O)N1CCN(c2ccc(OCC3COC(Cn4ccnc4)(c4ccc(Cl)cc4Cl)O3)cc2)CC1` (stereo not shown) has an inhibition of -21.2% (THP-1; pyroptotic LDH release; 2 µM, 40 min, added: LPS then nigericin).
`COc1cc2c(cc1OC)-c1c/c(=N\c3c(C)cc(C)cc3C)n(C)c(=O)n1CC2` has an EC50 of 4130 nM (HEK293T ATF4-FLuc reporter; ATF4 reporter gene, activator, luciferase reporter).
`Clc1ncnc2nc[nH]c12` has an inhibition of 20.3% (THP-1; pyroptotic LDH release; 2 µM, 40 min, added: LPS then nigericin).
For `COc1cc2c(c(O)c1OC)C(=O)c1c(cc(C)c(O)c1OC)C2=O`, the cell viability was 63.7 ± 7.75% (HK-2 co-cultured with HepaRG; MTT; 33.33 µM, 48 h; baseline: untreated control).
`O=c1[nH]nc(OCCCc2ccc(Cl)cc2)c(NCc2cccnc2)c1Br` — result for “normalized enrichment score”: 1.04 (HEK-293T; RNA-seq GSEA, item: Hallmark cholesterol homeostasis; concentration not given; direction not given).
The Emax of `C[C@H]1Oc2cc(cnc2N)-c2c(nn(C)c2C#N)CN(C)C(=O)c2ccc(F)cc21` is reported as 100% (Ba/F3 EML4-ALK variant 1 L1196Q; cell viability).
With `CCn1cnc2c(-c3ccc(F)c(-c4ccc(S(=O)(=O)CC)cc4OC)c3)cnnc21` the EC50 was 6690 nM (HEK293T ATF4-FLuc reporter; ATF4 reporter gene, activator, luciferase reporter).
For `NCCOc1cc(C(=O)Nc2cc(OCCN)c3ccccc3n2)nc(C(=O)Nc2cc(OCCN)c3ccccc3n2)c1`, the inhibition was 36.8% (THP-1; pyroptotic LDH release; 2 µM, 40 min, added: LPS then nigericin).
With `CN1CCN(c2ccc3[nH]c(-c4ccc5[nH]c(-c6ccc(C(F)(F)F)cc6)nc5c4)nc3c2)CC1` the growth percent was 70.8% (SF-268; SRB; 10 µM, 48 h).
For `CCc1cnc(N2CCC(c3nc(COc4ccc(-n5cnnn5)cc4)cs3)CC2)nc1`, “normalized enrichment score” read 1.44 (HEK-293T; RNA-seq GSEA, item: HALLMARK_UV_RESPONSE_DN; concentration not given; direction not given).
For `CCCCc1nc(Cl)c(CO)n1Cc1ccc(-c2ccccc2-c2nn[nH]n2)cc1`, “log2 fold change” read 1.56 (human PBMC; RNA-seq, item: MT1F mRNA; 10 µg/mL, 24 h; baseline: untreated control).
For `CNC(=O)c1cccc2c(Nc3ccc(NS(C)(=O)=O)cc3OC)c3cccc(C)c3nc12`, the EC50 was 2390 nM (HEK293T ATF4-FLuc reporter; ATF4 reporter gene, activator, luciferase reporter).
`O=C(Nc1nc2cccc(-c3ccc(CN4CCS(=O)(=O)CC4)cc3)n2n1)C1CC1` — result for “treatment-emergent adverse events”: 0% (item: blood amylase increased; rheumatoid arthritis patients; oral, 30 mg once daily, 4 weeks, any relatedness).
`Cc1cc(=O)[nH]n1-c1nc(-c2ccc(Cl)cc2)c2c(NC(=O)c3ccccc3)nnc-2[nH]1` has a cell growth of 92.7% (SF-268; SRB; 10 µM, NCI60 single-dose screen; baseline: untreated).
`CCn1cc(-c2cc(Cn3ccnc3)cc3c2CCN([C@H](c2cc(OC)ccn2)C2CC2)C3=O)c(C(F)(F)F)n1` gave an EC50 of 2430 nM (SNU119; cell growth; 120 h).
The EC50 of `O=C(Nc1cc(C(F)(F)F)ccc1C(F)(F)F)c1cc(Br)ccc1O` is reported as 1120 nM (HEK293T ATF4-FLuc reporter; ATF4 reporter gene, activator, luciferase reporter).
`C=CCn1c(=O)c2cnc(Nc3ccc(N4CCN(C)CC4)cc3)nc2n1-c1ccc2c(n1)[C@@](O)(CC)CC2` gave a γH2AX-positive cells of 26.2% (Kuramochi; flow cytometry; concentration not given, G2/M phase).
